Assay results gathered from unrelated publications.
A part holds a random share of what one study measured.
Sequence of UniProt O15530 (whole entry, looked up): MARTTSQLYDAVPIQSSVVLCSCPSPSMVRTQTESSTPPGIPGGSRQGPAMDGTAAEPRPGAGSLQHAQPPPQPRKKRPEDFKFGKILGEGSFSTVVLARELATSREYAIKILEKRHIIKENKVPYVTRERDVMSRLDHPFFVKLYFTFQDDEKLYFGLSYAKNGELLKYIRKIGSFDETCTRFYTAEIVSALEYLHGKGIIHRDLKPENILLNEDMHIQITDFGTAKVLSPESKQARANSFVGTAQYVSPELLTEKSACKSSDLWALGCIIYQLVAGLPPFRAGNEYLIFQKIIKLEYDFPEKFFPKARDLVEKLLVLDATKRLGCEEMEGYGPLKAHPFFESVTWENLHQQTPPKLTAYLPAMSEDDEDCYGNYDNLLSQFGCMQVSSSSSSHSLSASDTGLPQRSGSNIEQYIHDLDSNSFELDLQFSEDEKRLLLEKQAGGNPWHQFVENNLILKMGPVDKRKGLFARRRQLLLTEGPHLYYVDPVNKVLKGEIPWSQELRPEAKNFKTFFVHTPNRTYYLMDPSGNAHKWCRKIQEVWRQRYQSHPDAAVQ
Sequence of UniProt Q9BYP7 (whole entry, looked up): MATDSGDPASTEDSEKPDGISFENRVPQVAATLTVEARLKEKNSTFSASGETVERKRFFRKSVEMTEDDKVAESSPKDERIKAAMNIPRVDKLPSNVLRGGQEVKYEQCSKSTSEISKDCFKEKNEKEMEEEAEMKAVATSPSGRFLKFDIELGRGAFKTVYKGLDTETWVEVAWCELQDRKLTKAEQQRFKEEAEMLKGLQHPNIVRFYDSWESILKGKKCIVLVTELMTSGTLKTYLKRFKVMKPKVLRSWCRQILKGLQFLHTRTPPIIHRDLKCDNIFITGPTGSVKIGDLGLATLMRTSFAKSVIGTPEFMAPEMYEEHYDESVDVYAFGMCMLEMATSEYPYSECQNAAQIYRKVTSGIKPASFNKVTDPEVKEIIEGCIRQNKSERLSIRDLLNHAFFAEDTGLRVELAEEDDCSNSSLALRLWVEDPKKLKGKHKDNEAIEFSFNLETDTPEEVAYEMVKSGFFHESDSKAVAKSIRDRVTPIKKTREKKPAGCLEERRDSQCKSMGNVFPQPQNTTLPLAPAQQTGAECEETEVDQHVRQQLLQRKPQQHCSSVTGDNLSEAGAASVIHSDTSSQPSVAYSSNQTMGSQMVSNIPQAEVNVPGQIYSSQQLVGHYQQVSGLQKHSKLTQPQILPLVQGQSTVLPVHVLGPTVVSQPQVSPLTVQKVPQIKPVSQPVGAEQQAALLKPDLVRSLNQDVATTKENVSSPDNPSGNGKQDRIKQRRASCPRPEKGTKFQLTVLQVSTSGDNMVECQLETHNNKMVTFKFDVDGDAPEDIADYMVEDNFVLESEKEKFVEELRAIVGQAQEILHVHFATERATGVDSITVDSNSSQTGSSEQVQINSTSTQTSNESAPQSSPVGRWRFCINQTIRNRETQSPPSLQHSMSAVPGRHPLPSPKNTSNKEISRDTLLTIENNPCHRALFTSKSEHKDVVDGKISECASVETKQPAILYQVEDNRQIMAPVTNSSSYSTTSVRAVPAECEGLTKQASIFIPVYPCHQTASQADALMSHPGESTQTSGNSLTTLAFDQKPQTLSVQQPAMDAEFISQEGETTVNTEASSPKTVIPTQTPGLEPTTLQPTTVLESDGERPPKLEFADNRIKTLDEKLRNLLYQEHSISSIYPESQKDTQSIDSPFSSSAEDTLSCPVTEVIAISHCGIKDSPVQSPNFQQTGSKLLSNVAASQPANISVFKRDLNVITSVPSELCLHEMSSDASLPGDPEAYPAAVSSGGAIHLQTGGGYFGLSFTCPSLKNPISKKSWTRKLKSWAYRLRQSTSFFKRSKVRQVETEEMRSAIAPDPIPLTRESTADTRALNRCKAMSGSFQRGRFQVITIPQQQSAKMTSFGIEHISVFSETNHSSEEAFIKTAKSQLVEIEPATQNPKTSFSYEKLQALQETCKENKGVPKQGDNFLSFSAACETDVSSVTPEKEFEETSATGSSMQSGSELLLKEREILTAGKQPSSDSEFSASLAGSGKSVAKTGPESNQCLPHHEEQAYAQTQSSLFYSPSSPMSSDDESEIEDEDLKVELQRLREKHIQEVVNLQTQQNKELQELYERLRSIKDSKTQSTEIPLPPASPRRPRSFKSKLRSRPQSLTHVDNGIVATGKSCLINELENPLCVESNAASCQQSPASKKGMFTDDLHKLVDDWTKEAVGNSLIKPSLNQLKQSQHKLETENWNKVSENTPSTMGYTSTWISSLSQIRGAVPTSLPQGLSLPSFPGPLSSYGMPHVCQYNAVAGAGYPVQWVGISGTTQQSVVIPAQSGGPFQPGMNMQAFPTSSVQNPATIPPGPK
Sequence of UniProt P54764 (whole entry, looked up): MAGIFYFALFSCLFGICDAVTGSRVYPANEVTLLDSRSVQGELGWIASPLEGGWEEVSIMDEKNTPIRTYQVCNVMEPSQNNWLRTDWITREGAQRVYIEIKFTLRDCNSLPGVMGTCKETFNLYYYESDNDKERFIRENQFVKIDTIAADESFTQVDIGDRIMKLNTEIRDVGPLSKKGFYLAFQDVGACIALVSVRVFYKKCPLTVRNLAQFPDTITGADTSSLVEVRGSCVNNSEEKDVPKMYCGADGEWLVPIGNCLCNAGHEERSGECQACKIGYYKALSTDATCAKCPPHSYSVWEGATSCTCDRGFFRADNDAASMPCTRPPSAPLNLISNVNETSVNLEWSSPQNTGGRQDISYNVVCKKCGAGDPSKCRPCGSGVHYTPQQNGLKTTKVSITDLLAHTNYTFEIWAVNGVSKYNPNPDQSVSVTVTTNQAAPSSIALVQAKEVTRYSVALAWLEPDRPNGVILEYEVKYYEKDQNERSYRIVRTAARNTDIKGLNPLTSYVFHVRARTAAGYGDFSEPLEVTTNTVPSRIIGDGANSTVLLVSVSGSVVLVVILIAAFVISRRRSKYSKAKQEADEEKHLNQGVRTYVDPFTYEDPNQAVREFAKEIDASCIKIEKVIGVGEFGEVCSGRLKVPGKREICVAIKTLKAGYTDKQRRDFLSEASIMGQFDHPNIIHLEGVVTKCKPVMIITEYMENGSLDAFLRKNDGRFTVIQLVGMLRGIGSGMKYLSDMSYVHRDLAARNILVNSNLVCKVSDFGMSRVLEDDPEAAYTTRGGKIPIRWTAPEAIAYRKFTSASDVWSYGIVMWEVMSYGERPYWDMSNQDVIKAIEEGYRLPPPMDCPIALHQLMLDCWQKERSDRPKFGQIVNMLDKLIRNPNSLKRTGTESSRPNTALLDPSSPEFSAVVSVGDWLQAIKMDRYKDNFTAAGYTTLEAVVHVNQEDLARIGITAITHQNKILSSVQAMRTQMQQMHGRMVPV
Sequence of UniProt Q9UK32 (whole entry, looked up): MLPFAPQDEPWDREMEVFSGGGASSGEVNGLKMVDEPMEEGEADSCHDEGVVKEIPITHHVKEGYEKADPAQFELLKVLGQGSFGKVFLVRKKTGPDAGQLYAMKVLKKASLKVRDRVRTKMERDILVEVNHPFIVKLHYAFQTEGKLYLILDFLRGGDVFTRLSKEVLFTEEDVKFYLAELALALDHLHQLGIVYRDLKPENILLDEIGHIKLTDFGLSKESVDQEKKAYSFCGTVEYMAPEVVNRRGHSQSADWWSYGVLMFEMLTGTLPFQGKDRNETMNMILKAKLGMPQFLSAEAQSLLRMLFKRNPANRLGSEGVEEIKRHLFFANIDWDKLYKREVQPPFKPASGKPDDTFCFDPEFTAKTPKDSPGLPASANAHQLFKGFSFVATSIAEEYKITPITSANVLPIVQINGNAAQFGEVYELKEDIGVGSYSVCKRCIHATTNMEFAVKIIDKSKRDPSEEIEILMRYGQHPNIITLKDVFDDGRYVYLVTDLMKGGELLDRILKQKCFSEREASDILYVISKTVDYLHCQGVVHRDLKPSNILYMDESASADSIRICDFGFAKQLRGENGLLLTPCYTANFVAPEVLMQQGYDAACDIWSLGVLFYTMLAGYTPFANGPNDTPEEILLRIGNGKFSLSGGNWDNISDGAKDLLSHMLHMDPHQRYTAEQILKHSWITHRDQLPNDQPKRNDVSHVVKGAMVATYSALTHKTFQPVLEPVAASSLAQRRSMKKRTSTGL
Sequence of UniProt O75716 (whole entry, looked up): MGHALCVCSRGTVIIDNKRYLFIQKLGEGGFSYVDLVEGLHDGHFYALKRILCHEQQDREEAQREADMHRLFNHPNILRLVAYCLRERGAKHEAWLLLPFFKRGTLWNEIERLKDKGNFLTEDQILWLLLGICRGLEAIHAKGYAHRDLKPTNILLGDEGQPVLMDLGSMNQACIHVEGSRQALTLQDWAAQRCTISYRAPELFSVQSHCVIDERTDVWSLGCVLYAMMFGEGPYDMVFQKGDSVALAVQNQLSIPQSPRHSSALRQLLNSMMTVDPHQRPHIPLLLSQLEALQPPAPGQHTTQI

Block 1
Cell line: HaCaT
Tested at: 100 µM
Time: 60 h
Endpoint: viability
Structure (SMILES) = CCCCC[C@H](O)/C=C/[C@H]1[C@H](O)CC(=O)[C@@H]1CCCCCCC(=O)O; value = 118%
Structure (SMILES) = C[N+]1(CCCCC[N+]2(C)CCCC2)CCCC1; value = 141%
Structure (SMILES) = Cc1onc(-c2ccccc2)c1C(=O)N[C@@H]1C(=O)N2[C@@H]1SC(C)(C)[C@@H]2C(=O)O; value = 129%
Structure (SMILES) = CC(=O)O[C@]1(C(C)=O)CC[C@H]2[C@@H]3C=C(C)C4=CC(=O)CC[C@]4(C)[C@H]3CC[C@@]21C; value = 113%

Block 2
Host: human
Medium: microsomes or S9
Tested at: 2 µM
Time: 0.5 h
Endpoint: remaining compound
SMILES = Nc1ccc2c(c1)C(N(Cc1ncc[nH]1)c1ccc(Cl)cc1)C(O)CCO2 (stereo not shown); value = 22.5%
SMILES = CC(C)(C)OC(=O)N1CCCC1C(=O)NC(CC1=NOC(C(N)=O)C1)c1ccccc1 (stereo not shown); value = 95.6%
SMILES = CCOc1cc(=O)n2c(c1C(=O)N(CC)Cc1ccncc1)CCCCC2; value = 65.8%
SMILES = O=S(=O)(CCNc1ccccc1F)c1ccccc1; value = 23.4%
SMILES = O=C(Cn1ccc2ccccc21)NCCn1ncccc1=O; value = > 100%
SMILES = CC(NC(=O)CN1C(=O)CCn2nc(-c3cn(C)c4ccccc34)cc21)c1ccc2c(c1)OCCO2 (stereo not shown); value = 11.5%
SMILES = Nc1ccc(C(=O)NC2CCc3ccccc32)cc1 (stereo not shown); value = 70.2%
SMILES = Nc1c2c(nc3ccccc13)N(C1CCCCC1)CC2; value = 66.1%
SMILES = Cc1ccnc(COc2cc(C)nc3onc(C)c23)n1; value = 49.2%
SMILES = Cc1ccc(-c2ccc(-n3nc(C)c(S(=O)(=O)Nc4ccc5c(c4)OCCO5)c3C)nn2)cc1; value = 43.9%

Block 3
Target: Beta-2 adrenergic receptor (ADRB2, Homo sapiens, UniProt P07550)
Sequence of UniProt P07550 (whole entry, looked up): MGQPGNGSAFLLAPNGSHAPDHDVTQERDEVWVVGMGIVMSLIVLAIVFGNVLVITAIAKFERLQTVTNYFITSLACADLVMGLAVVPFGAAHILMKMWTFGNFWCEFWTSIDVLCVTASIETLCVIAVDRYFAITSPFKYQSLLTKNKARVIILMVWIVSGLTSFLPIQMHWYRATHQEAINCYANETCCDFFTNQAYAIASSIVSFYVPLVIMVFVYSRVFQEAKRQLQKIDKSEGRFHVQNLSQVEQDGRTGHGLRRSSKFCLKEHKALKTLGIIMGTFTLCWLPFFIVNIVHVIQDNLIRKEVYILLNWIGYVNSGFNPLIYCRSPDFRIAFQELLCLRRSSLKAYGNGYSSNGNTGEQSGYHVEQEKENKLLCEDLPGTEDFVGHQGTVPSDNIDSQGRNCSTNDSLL
Read-out: binding
Technique: radioligand binding
Tested at: 10 µM
Endpoint: inhibition
SMILES = CC(=O)Nc1c(F)cc(C(=O)N[C@H]2CC[C@H](O)CC2)cc1O[C@@H](C)c1ccccc1; value = 28.1%
SMILES = O=C(O)c1cc(-c2ccc(C3CCNCC3)cc2)c2ccc(-c3ccc(C(F)(F)F)cc3)cc2c1; value = 38.9%
SMILES = Cc1nc(C2CCN(C(=O)c3ccc(OC(F)(F)F)cc3N)CC2)c2ncc(N3CCN(C)CC3)cc2n1; value = -5.65%
SMILES = Cc1c[nH]c2nccc(Oc3c(F)cc(Nc4cc(Cl)nc(N)n4)cc3F)c12; value = -7.12%
SMILES = COCCc1ccc(-c2c(C)nc3c(N4CCOCC4)ccnn23)cn1; value = -1.12%
SMILES = Cc1cc(-n2nc(Cc3cc(F)cc(C(F)(F)F)c3)nc2C)ccc1C(N)=O; value = -1.39%
SMILES = Cc1nc(N2CC[C@@H](O)C2)ncc1-c1cc(C(F)(F)F)cc2[nH]ncc12; value = -2.23%
SMILES = O=C(NC[C@@H]1[C@H]2CN(C(=O)OCc3cc(C(F)(F)F)cc(C(F)(F)F)c3)C[C@@H]12)c1ccc2[nH]nnc2c1; value = -10.7%
SMILES = CC(=O)Nc1nc(CN2CCC[C@H](Cc3cc(C)nc(C)c3)C2)cs1; value = -8.1%
SMILES = CC1=C(C#N)[C@@H](c2ccc3[nH]nc(C)c3c2)C(C#N)=C(c2ccc(Cl)cc2)N1; value = -0.813%
SMILES = CC(=O)c1c(NS(C)(=O)=O)c2cc(-c3ccc(Cl)cc3)c(-c3ccc(Cl)cc3Cl)nc2n(C)c1=O; value = 5.51%
SMILES = C[C@H](NC(=O)c1cnc2n1[C@](C)(Cc1ccc(C#N)cc1)C(=O)N2c1cc(Cl)c(F)c(Cl)c1)C(=O)NC1(c2ccccn2)CC1; value = -9.72%

Block 4
Structure (SMILES): O=C(Nc1cccc(Nc2nccc(Nc3cccc(C(F)(F)F)c3)n2)c1)C1CC1
Read-out: enzyme activity
Action: inhibitor
Tested at: 0.5 µM
Baseline: control
Endpoint: remaining activity
target = MAPKAPK3 (Homo sapiens, UniProt Q16644); value = 93%
target = RPS6KA5 (Homo sapiens, UniProt O75582); value = 101%
target = TSSK2 (Homo sapiens, UniProt Q96PF2); value = 97.1%
target = RPS6KA6 (Homo sapiens, UniProt Q9UK32); value = 89.5%
target = ABL1 (Homo sapiens, UniProt P00519); value = 94.9%
target = PHKG1 (Homo sapiens, UniProt Q16816); value = 98.3%
target = WNK3 (Homo sapiens, UniProt Q9BYP7); value = 105%
target = EPHB4 (Homo sapiens, UniProt P54760); value = 91.3%
target = EPHB1 (Homo sapiens, UniProt P54762); value = 85.6%
target = STK16 (Homo sapiens, UniProt O75716); value = 87%
target = Cyclin-dependent kinase 4, with cyclin D3 (CDK4, Homo sapiens, UniProt P11802); value = 103%
target = AXL (Homo sapiens, UniProt P30530); value = 104%
target = Cyclin-dependent kinase 6, with cyclin D3 (CDK6, Homo sapiens, UniProt Q00534); value = 98.5%
target = DYRK3 (Homo sapiens, UniProt O43781); value = 101%
target = PDPK1 (Homo sapiens, UniProt O15530); value = 104%
target = BLK (Homo sapiens, UniProt P51451); value = 99.8%
target = HIPK4 (Homo sapiens, UniProt Q8NE63); value = 111%
target = CAMK2B (Homo sapiens, UniProt Q13554); value = 102%
target = EPHA4 (Homo sapiens, UniProt P54764); value = 81%
target = MAP4K4 (Homo sapiens, UniProt O95819); value = 92.4%
target = Cyclin-dependent kinase 1, with cyclin B (CDK1, Homo sapiens, UniProt P06493); value = 89.3%
target = HIPK2 (Homo sapiens, UniProt Q9H2X6); value = 103%
target = STK17A (Homo sapiens, UniProt Q9UEE5); value = 97.6%

Some of these lines once more (block 2):
SMILES = Cc1ccc(-c2ccc(-n3nc(C)c(S(=O)(=O)Nc4ccc5c(c4)OCCO5)c3C)nn2)cc1; value = 43.9%
SMILES = O=S(=O)(CCNc1ccccc1F)c1ccccc1; value = 23.4%
SMILES = O=C(Cn1ccc2ccccc21)NCCn1ncccc1=O; value = > 100%
SMILES = Nc1ccc2c(c1)C(N(Cc1ncc[nH]1)c1ccc(Cl)cc1)C(O)CCO2 (stereo not shown); value = 22.5%
SMILES = CCOc1cc(=O)n2c(c1C(=O)N(CC)Cc1ccncc1)CCCCC2; value = 65.8%
SMILES = Nc1c2c(nc3ccccc13)N(C1CCCCC1)CC2; value = 66.1%
SMILES = Nc1ccc(C(=O)NC2CCc3ccccc32)cc1 (stereo not shown); value = 70.2%
SMILES = CC(C)(C)OC(=O)N1CCCC1C(=O)NC(CC1=NOC(C(N)=O)C1)c1ccccc1 (stereo not shown); value = 95.6%
